Results gathered from unrelated publications.
A part holds a random share of what one study measured. Substitutions count along the parent as printed.

Sample 1
Target: Interferon regulatory factor 7, full length, phosphomimetic (IRF7, Homo sapiens, UniProt Q92985, residues 1-503, S101K/S471D/S472D/S475D/S476D/S477D/S483D/S484D/S487D)
Chain of UniProt Q92985 (whole entry, unmodified, looked up): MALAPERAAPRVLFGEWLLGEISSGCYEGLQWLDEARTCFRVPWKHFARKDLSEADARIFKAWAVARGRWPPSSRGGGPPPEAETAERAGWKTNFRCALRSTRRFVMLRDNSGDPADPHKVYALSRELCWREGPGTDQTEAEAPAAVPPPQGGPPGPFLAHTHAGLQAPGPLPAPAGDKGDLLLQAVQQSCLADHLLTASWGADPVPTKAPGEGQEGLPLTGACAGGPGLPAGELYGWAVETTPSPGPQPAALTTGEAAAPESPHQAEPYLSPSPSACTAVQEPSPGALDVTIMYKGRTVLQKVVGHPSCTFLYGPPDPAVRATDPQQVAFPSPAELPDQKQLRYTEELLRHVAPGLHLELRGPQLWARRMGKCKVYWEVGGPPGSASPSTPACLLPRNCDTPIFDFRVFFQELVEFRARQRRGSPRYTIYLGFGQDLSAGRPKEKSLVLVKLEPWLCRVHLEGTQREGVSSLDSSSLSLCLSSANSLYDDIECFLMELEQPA
Technique: protein-binding microarray
Form: double-stranded DNA, one strand shown
Medium: in vitro
Concentration: 250 nM
Notes: 60-bp whole probe
With: salmon DNA 0.4 mg/ml
Baseline: random background probes
Reading: higher = stronger binding
Measurement: log fluorescence
Constant ends, left off below: GCCTAGCAC … GTCTTGATTCGCTTGACGCTGCTG
GACGGACTGGGTATCGTGACGTGCTAG: -0.463 z-score
TTAGATTTCGGTACTGGATTAGTGCTA: 0.901 z-score
GCTGTTCTCAGACTGGGTGCGTGCTAG: 0.785 z-score
TAAGGTATCGGGTATCGGTTAGTGCTA: 1.53 z-score
GACGAACTGAGAGTGGAGACGTGCTAG: -0.509 z-score
TCACTGGTCACTCTCTGACTGTGCTAG: -0.695 z-score
TGTGGGCGTAGGCCCGGAGCGTGCTAG: -1.25 z-score
GACGGTTTCGGGTATCGAGACGTGCTA: 7.32 z-score
AGCCAGGCAACCTATGGCCTGTGCTAG: -1.53 z-score
TCAACTTTCTTTTTTTCACTGTGCTAG: 1.05 z-score
TGTGTTTTAAATAGGGCAAAGTGCTAG: 1.03 z-score
CAGGGTTTCACTTTAAATTAGTGCTAG: 8.71 z-score
TTAGAACTGAGTCTCGATTTGTGCTAG: 4.69 z-score
TCACATACTAGTTTCCAACTGTGCTAG: 1.35 z-score
TTAAGCCCACTATCTAGCCCGTGCTAG: 0.0386 z-score
GACGATCTCAGTTGCGAGACGTGCTAG: 0.262 z-score
TTAGATATCGGGTATCGGTTAGTGCTA: 0.787 z-score
GACGGTTTCGCGTTTCGGGACGTGCTA: 7.76 z-score

Sample 2
Target: RING finger protein unkempt homolog, zinc fingers 1-6, SBP tag (UNK, Homo sapiens, UniProt Q9C0B0, residues 30-357)
Chain of UniProt Q9C0B0 (30-357, looked up): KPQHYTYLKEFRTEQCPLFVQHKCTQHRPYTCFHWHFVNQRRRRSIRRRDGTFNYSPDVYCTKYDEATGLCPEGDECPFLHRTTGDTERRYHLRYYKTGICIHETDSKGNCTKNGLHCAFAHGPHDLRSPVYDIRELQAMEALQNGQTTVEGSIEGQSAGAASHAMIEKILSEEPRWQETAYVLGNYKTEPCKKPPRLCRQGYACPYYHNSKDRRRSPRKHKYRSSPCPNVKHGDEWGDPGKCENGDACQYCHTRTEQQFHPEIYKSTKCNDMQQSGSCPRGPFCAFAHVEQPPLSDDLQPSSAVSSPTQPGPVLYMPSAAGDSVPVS
Technique: RNA Bind-n-Seq
Form: RNA
Medium: in vitro
Concentration: 100 nM
Notes: RNA with constant flanks, vertebrate orthologous sites, ends assumed
Baseline: input RNA pool
Reading: higher = stronger binding
Measurement: bound/input enrichment
Constant ends, left off below: GGGAGUUCUACAGUCCGACGAUC … CAACAGAGGAUUGAGCAUCA
AUCCCUCAGUGACAGUAUGCCGUCUGUAGCUGAUUCCCAUUCAAGUCAUUUCUCUGAAUUUAGUUGUUCUGACCUAGAAAGCAUGAAAACUUCUUGUAGUCAUGGUUCCAGUGAUUAUCA: 0.498 ratio
AGAAAGAAUAGGUUUUAAGUCUUAUGAACACAUAACUCUAGAGAAGUUUACAGCAAAGCCUAGUUUACAGGGGUAUCUUGUGCUGCAGUACUUUUAUAAAGUGUUUUUCAGAAUCAUGAA: 0.554 ratio
CAUGUCCUGGUUACUGUGAUACUCAUAAUAGCCACAGUUCUCACUUGUUCCAAACAGUCCUGAUGAUUGCCCAGAAAUAUCCUUCUCUUACCUGUUAUUUAUCAAUUUUUCCCAGUAUUU: 1.59 ratio
GUAUCUUGGUUUGGGGUAGAGGGGAGGGAGGGGCAGGACUGUGGAAUCUCUCCGGUAUAUGGGUAGAUAAGUGGACCUAUGUUAACCUCUGGGGCAUCUGUUUUGGGGGUGAGUAUGGGU: 0.478 ratio
GUGUCUUGGUUUGGGGUAGAGGGGAGGGAGGGGCAGGACUGUGGAAUCUCUAGGGUAUAUUGGUAGAUAAUGGUGCACAGUUAGUUGUAAGUGGGCCUUUAUGUUAUAAACCUCUGGGGG: 1.14 ratio
UCAACUCAGGUUUUAUUUAUUUUGAGAUUAUCAAUUGUAUAAGUCUAAUUUAUUGACAAACAUGAUGGGAUUUAAAUUUUUUUAUUGUUGAAACCUUAACAGGCAAUUCAUAUUCCCAGC: 0.294 ratio
GUGUUGGUGCGGAGUUCUCUGUGCCAGUGCUCAUCACCCCUUCUUCAUACCAACUGUCCCUAGUUAUAGGAAUUUAAUAUUUUUAAAAGUUUUACAUUGCUGUAUAUUCAAAGAUUUGUU: 0.597 ratio
ACAGUAUGGGUUACUCUCAUUUCUGUAGCAGAUAGAACAUUUUGCAAAAUAUGUAUACACCUAGCUAAGCUGAAUAUAAUAUAUUUUUAUUAGACUGUAAAUAAACAUACUCUUCUGCAU: 0.414 ratio
AAGGAUCAAAAGUUCAAGACCAUUCUCGGCUACAUCCCAAGUUUGAGGCCAGCUUCAGCUACAUGAGACCGGGAUAGGGUGGGCAGGGAAGGACAACAUGUAGAUCAUUGAAGCUCAGAA: 1.33 ratio
GUAUGUGGGGUAGCCUUGGCCCCUGCCUUGGCCUUACCUCUCCUCCCUGUCACCUGUCCCUAGUUAUUUUUUUUUUAACCACCACGUGAUUAUGGUCGGUGCUGCCUUUUCCCGACCUGC: 6.14 ratio
AGCAGGCCAGGGAUUGAGGCCCACCUUCCCACAUGUGCCGAGUCGGUAUGGAAACUACAGGACGGGGCAGCCGAGACCUUGAAGGACUCUAACUCAUUUUUAUGAGCAAUGUCGACUCCU: 0.123 ratio

Sample 3
Target: RNA binding protein fox-1 homolog 2, RRM domain, GST-SBP tag (RBFOX2, Homo sapiens, UniProt O43251-10, residues 100-194)
Technique: RNA Bind-n-Seq
Form: RNA
Medium: in vitro
Concentration: 365 nM
Notes: natural RNA segment, single round, ends assumed
Baseline: no-protein control
Reading: higher = stronger binding
Measurement: RBNS enrichment (R)
Constant ends, left off below: GGGAGUUCUACAGUCCGACGAUC … UGGAAUUCUCGGGUGCCAA
Residues (chain): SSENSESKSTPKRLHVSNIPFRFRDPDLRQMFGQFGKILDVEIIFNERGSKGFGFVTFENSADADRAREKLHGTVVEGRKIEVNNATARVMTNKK
AUUUUCAUAUAAAAGGUAAGAAAGAGUUUGCAAAGCAUUUGUGGCUUUUUGUAGUUUACUUAAGCCAAAAUGUGUUUUUCCCUCAAUAGCUUCGCUAAUAUUUUAAACAG: 0.563
AGCGGCCAUUUAUGUUCAUGUUCACAGGAAGGUCUUCUGCUGCUCCAUCCUAGACCUGCCCCAGUGCCCAGCAGUCACCCUUCCCCUCUAGCUACAGAGUCCAGGCCACU: 0.508
GUGUUGUUGAGAGGAUGAUGUUGUAAGGGUACCUUAAAACAAGAGACUCGCUUGUAUUUUAAGAGAACCAAGUGGCCAAAGAAACUCUUUCUAACUUUGGCAACAUCAGA: 0.31
UUGGGUUUUAGUUGGGAUUUUACAUAGCUUGCAUUUUAAUUCUUUGGUUCUUUGCUGUUUCUAUUAACCCACAGCAUUAUUUUAAUAAAUGUUAUAAUACCAACCUACUA: 4.82
UUAGCAGUUGAAUCCAAACCAGUUUCAUUUAGCUGGAAGUAGACAGGAAGGAGCUGCCUUAAGCACUUUAGAAAAAGAAUUUGCUACAAUUCAUUUGACUCAGCUGAUUG: 0.356
UAAGACAGGGAAAGCAAGUUCAUGGUACAUACGCAGCCAUUGUCUCUGUUUUUACCCAUGGCAGACAUUGCUAAUCAAUGGCAGCUCUAUUUCACUGAGUCUGGAUAAGG: 0.89
UAAUUAUUAUUGCUGUUGUUAUUUUACAAGGGUCUAGGGAGAGACCCUUGUUUGAUUUUAGCUGCAGAACGUAUUGGUCCAGCUUGCUCUUCAGUGGGAGAAAACACUUG: 1.88
ACCCUUAGGCUCCAAAAAUUUGCCUGCCUUUGAGAGAACAACAAACAGGUCUUUUCUCUCUCCUUUAUGGUACUUCUCAGAACAAGAGAAACUGAGUUAGGGCUUGAGUC: 0.738
AAAAAUUGCUGAAUAUAAAAUCUUUGAAAAUUUUCUUUAUGUGUGAAGACACAAAGUAUGGGGGAAGACAGCAAUCAAAACUAACUUUUUGUAGAUAGCCAUUUCAUUUC: 1.39
UGCACGGAGGAGGCUAAGACUCCAUCUCGGCCUUUGAACUCAGAGAUCCCCCUGCCUCAGCCUCCAGAGUGCUGGGAUAAAAGGUGUGGGCCACCAAGCUAGGCUAAGAA: 1.15
AUGUUUUUGAGGGAUCCGGUCCCAAGACCGCUACUUAAGGAAGGGCUACAGACUUAAGGAACUCCACAGUCCUGGGAACCCUGUUCCGAGGGUACCCACUACUCAGGCCU: 0.185
AAGUGGGCACGUUCUCUCGGGGUGGCUCACAGCUUUGAACCUGCCAAAGGACCCCUCGACUGGCCACAGCCCAGCCCAGCCUGACGUGGAUGUGGCUGCCCAGGAAAAGA: 0.793

Sample 4
Target: CCNA1, cyclin fold, Cln2 fusion (human)
Technique: yeast growth competition, sequencing
Medium: yeast
Notes: weak parent motif
Baseline: not given
Reading: higher = stronger binding
Measurement: normalised enrichment score
Starting sequence: SCAPER docking peptide (human); SNARRSLNFGGST
SNARRQLNFGGST [S6Q]: 0.72
SNARRYLNFGGST [S6Y]: 0.48
SNARKSLNFGGST [R5K]: 0.15
SNARRSLNFPGST [G10P]: 0.654
SNARRSLNFGGDT [S12D]: 0.615
SNARRSLNFGGWT [S12W]: 0.357
SNARRILNFGGST [S6I]: 0.353
SNARRKLNFGGST [S6K]: 0.454
SNARRSLNFMGST [G10M]: 0.472
SLARRSLNFGGST [N2L]: 0.505
SNARRSLNFKGST [G10K]: 0.439
SNARRSLNFGLST [G11L]: 0.421
SNTRRSLNFGGST [A3T]: 0.665
SNARRSMNFGGST [L7M]: 0.207
SNSRRSLNFGGST [A3S]: 0.337
SNARRSYNFGGST [L7Y]: 0.326
SNARRSLNKGGST [F9K]: 0.0956
SNARASLNFGGST [R5A]: 0.0622
SNARRSLNFGRST [G11R]: 0.304
SNARRSLNFGGLT [S12L]: 0.692
SNARRSSNFGGST [L7S]: 0.459
SNERRSLNFGGST [A3E]: 0.526
SNYRRSLNFGGST [A3Y]: 0.353
SNLRRSLNFGGST [A3L]: 0.31
SNQRRSLNFGGST [A3Q]: 0.0891

Single results of other studies
PhoQ, residues 284 288 289 292 302 303 SSLVEF — fold induction (PhoP, residues 12 14 15 18 19 NHTVL (Escherichia coli, UniProt P23836); Sort-seq, item: YFP reporter; E. coli; PhoQ-PhoP variant library, with: 10 µM Mg2+; baseline: high Mg2+ state, higher = stronger signaling): 8.23

For quick reference, copied from above (sample 4):
SNARRSMNFGGST [L7M]: 0.207
SNARRSLNFGGLT [S12L]: 0.692
SNLRRSLNFGGST [A3L]: 0.31
SNARRSSNFGGST [L7S]: 0.459
SNARRSLNFPGST [G10P]: 0.654
